Measured values collected from several papers.
A part holds a random share of what one study measured.

Block 1 — technique: universal PBM; molecule type: double-stranded DNA, one strand shown; matrix: in vitro; tested at: not given; reading: higher = stronger binding
Target: Sal-like protein 4, full length isoform B (SALL4, Homo sapiens, UniProt Q9UJQ4-2, residues 1-616)
Setting: 8-mer, flanks averaged, mean of replicates
Sequence | E-score
AGGGCGGA | -0.293
GAAGTCAC | -0.035
GCGCGGAA | -0.386
ATTCTCAC | 0.116
AACCTACT | -0.0307
TCTGCTCA | -0.0598
ATAGTCCG | 0.0909
ACAAGACC | -0.0896
ACAGGTTA | 0.0456
GGCTCTCA | -0.132
CCCTGCCC | -0.269
AGGATTAC | 0.065
GTAGGAGA | -0.0295
GATGATAC | 0.101
ATACTGTC | 0.145
GCATCTTA | 0.117
CAAAAAAC | 0.201
CTGTTCAC | -0.148
TCGAACCA | -0.198
GAGATGGC | -0.0681
CAACACCC | -0.111
GCACCCGC | -0.118

Block 2 — technique: protein binding microarray; molecule type: double-stranded DNA, one strand shown; matrix: in vitro; tested at: not given; relative to: not given; reading: higher = stronger binding
Target: Histone acetyltransferase KAT6A, winged helix 1, GST fusion (KAT6A, Homo sapiens, UniProt Q92794, residues 1-85)
Setting: 8-mer, flanks averaged, mean of 2 arrays, mostly near background
Target sequence (chain): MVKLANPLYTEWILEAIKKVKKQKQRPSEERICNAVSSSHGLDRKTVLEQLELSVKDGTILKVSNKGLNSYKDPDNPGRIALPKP
Sequence | E-score
ATTCTAGA | -0.24
CCTGGCTC | 0.00899
CAAGGAGG | -0.0279
ACCGCAAT | 0.159
GCCTGAAC | -0.0325
GCGGGACC | 0.355
ATCATCAT | -0.0966
AATAGTGT | -0.0157
CAATCAAA | -0.124
AACCCCCA | 0.0216
ACATCGCC | 0.247
TGAACTAA | -0.122
GCGGGCGA | 0.378
CCGCTTCA | 0.231
ACCCCGAC | 0.218
CACCTTAA | -0.106
AGGTGATG | -0.0991
AATTACGT | -0.205
CCATTATC | -0.169
GTTCAGCA | -0.281
AGCATGCT | -0.179
CTTGAGCA | -0.206
ATCGACGA | -0.0654
GGGTTGTA | 0.0425
CATCATAG | -0.21

Block 3 — technique: RNA Bind-n-Seq; molecule type: RNA; matrix: in vitro; tested at: 365 nM; relative to: no-protein control; reading: higher = stronger binding
Target: RNA binding protein fox-1 homolog 2, RRM domain, GST-SBP tag (RBFOX2, Homo sapiens, UniProt O43251-10, residues 100-194)
Setting: natural RNA segment, single round, ends assumed
All sequences stand within: GGGAGUUCUACAGUCCGACGAUC … UGGAAUUCUCGGGUGCCAA
Construct (chain): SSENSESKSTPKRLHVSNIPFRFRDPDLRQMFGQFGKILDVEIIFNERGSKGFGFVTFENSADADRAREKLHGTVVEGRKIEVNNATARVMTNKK
Sequence | RBNS enrichment (R)
UUAUGAGGCUUUCAAUCGUGGAAGCUCAGGAGGGAAUGGUCCUGAUAGUGACAUCUGGGACCCCAGGCCUCUGAAGCAUUUGCAGCCUCCUCAGGAGGGUGAGGGCCAUC | 0.344
UUUUGACAUCACCCAUUUCCAACUGGGGAUCUCUGGUGCCAAGCCAGAAAGAACGAGGCAUGUAUACACCUCUUCUUCAUGAUAUAUAAUCUAUAUUUUUUUAGGAAAAC | 0.366
AGCCGGAUUUGUGUAUCAAUUCCUCCGCUGACAGUCAGUUUCUAGAUGGAGACAGCCUGCUUAAAGCAAAUCCGAAUUUAAAUAGGACAUUUACAUCGGAAAAGUCUCUC | 0.224
UGGAGUAUAUUUCCACCUAUGAUGACAUAGCUAGACCUCCUUUUACCAACAAAACUCCAGGUUGAGACUCUCUAGUCUUGCCAGGGCCCACUGAGAGCUCCCAGACUCAG | 0.249
GAAUAAUUUAAUCUGUACAAUAAAUACAGUAUAGGCUGAUCAAGGAGCAUUUUGUAAGCUGCCCUCACACUAUAUAAUGGACAAUCUUUAUUCUGUUCUUUAGUAUAACA | 0.608
UGUUUUGAAUCUUUGUAAAAAUUGAUAUUCUGUAUAACAGAGUGCCUCUCUGUUACUUUUGGCCUAUGUUGUUAGAAAUAAGAUGCUAUCUUGCAUAGUUAGAAUUAAGC | 0.507
CCUGAGAAUAGACAGGAGAGGGUCAGAAGCAGACGUCCUCCUUUUCUUGUGAUAACCACGCUACUUGCCUUUGCUAGAGCUCUCUGUGGCCAACCCUGGGAAAUGCUAAU | 0.659
GAUCCAUGGAUGUUCCAUCUGUAGGACCAACUUGAUGUGCCCAUCCUGACAUUGUAUGCCACAAGAGCUCUUGUGAUGAUGGAAUUUUGAUUAAAGUGCACCGGAAGACG | 1.77
UUCCCCACCCUGGGGAGCACAUAAAGAAGCUUGCCAAGGGGGGCGUCCUUGCUCCCCAGUUGUCCUGUUUCUGUAACUUAUGAUGUCUUUUCCCUGAGAUGGGGGCUCAG | 0.327
CCCAGAGAGGGCUCAGAAACGGCCCAGGAAGGCCCAGGGCCUUCCUGGCGUGAUUGACGAUCUGAGUUUUAUCUCUCACACCUACAAGGUGGAAGAGGAGAACUGGCUCC | 0.2
UUGGAUAAAUAGGAUUCAGAAAGCUAACAGUUUUCAUUCUGAAGGAGCAGAAACAUAAUCAAUCCCUCCCUGAGAUAAAAUGUGGGCAUGCACAUUGCUUUGGAGUCAGU | 1.15
UAUCUCAGACCCAAGGCACCUCAGGUCUCUUUGCUGUGCCUCCACUAUAUUGUCGUGUGGGUGUGUGUCUGCACCCACAUCCUCACACAUUGAUCUAGAUCUGCCUUUAU | 0.261

Block 4 — technique: aptamer microarray, sandwich; molecule type: DNA with 2'F-ANA; matrix: in vitro; tested at: 200 nM; with: Cy3 exosite-II aptamer, 400 nM; reading: higher = stronger binding; sequence: GGTTGGTGTGGTTGG
Target: Prothrombin, mature alpha-thrombin (F2, Homo sapiens, UniProt P00734)
Setting: whole 15-mer aptamer, many near background
Modification | mean fluorescence intensity [a.u.]
2'F-ANA at 5 6 11 | 64
2'F-ANA at 2 5 9 12 13 15 | 102
2'F-ANA at 1 3 6 7 8 | 390
2'F-ANA at 1 3 5 8 10 11 13 14 15 | 45.3
2'F-ANA at 1 2 4 5 7 8 10 13 14 | 47.9
2'F-ANA at 3 5 6 8 9 10 12 14 | 77.7
2'F-ANA at 1 2 5 6 8 10 11 12 14 | 49.6
2'F-ANA at 4 8 13 15 | 268
2'F-ANA at 2 5 7 11 12 13 14 15 | 71.9
2'F-ANA at 3 4 5 6 7 8 11 12 14 | 52.1
2'F-ANA at 3 4 5 7 8 9 10 13 15 | 104
2'F-ANA at 1 3 8 9 10 11 12 15 | 107
2'F-ANA at 1 2 4 5 6 7 8 12 | 142
2'F-ANA at 1 3 5 6 8 11 14 15 | 57.3
2'F-ANA at 2 4 6 11 13 | 170
2'F-ANA at 2 3 4 5 6 7 11 12 | 149
2'F-ANA at 3 9 11 | 1060
2'F-ANA at 9 10 11 12 15 | 173
2'F-ANA at 2 3 5 6 8 10 11 14 | 73.2
2'F-ANA at 1 3 4 6 7 10 11 14 | 50.3
2'F-ANA at 5 7 11 13 14 15 | 45.4
2'F-ANA at 1 3 8 9 10 12 13 15 | 112
2'F-ANA at 1 6 8 9 11 12 | 322

Block 5 — technique: DNA-protein interaction ELISA; molecule type: double-stranded DNA, one strand shown; matrix: in vitro, bacterial lysate; tested at: not given; setting: whole dsDNA probe, crude lysate protein; relative to: highest signal in screen; reading: higher = stronger binding
Target: Probable WRKY transcription factor 50, DNA-binding domain (WRKY50, Arabidopsis thaliana, UniProt Q8VWQ5, residues 99-173)
Target sequence (chain): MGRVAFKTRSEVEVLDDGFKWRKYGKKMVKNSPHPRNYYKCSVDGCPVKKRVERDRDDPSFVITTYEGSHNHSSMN
Sequence | relative absorbance
AAAAAACTCGCGCTTGCATCTGTGCGAAAA | 11.1 % of maximum
AAAAAAACTCAACTAGTGAACCACCAAAA | 18.3 % of maximum
AAAAAACCGATCATCACATATCACTGAAAA | 13.4 % of maximum
AAAAAAATATTTGAGCTAGGTTATCAAAAA | 21.8 % of maximum
AAAAAAGCTAGTCGATTCGGCTTAGAAAAA | 12.4 % of maximum
AAAAAACACAGCATTAGGCTATCGGTAAAA | 14.2 % of maximum
AAAAAACCCATCCTTCGTTCCATCGTAAAA | 34.6 % of maximum
AAAAAACTCCCTCTCCTCTGTCTTCCAAAA | 31.1 % of maximum
AAAAAAATCCCACTTCATTCTAAAAA | 20.8 % of maximum
AAAAAATCAACCATTATGGTATTACTAAAA | 28.5 % of maximum
AAAAAAGTACGGATGCCCGCGCGTATAAAA | 35.4 % of maximum
AAAAAACATTGATAAAATCTCCAGGCAAAA | 18 % of maximum
AAAAAATCCCTGCTCCCCTGGTTCCTAAAA | 36.9 % of maximum
AAAAAATAAGTAACCGAACGAAACTCAAAA | 18.1 % of maximum
AAAAAATACGTCTACGTGGTTGTCGTAAAA | 46.5 % of maximum
AAAAAATCGCGTCCGTGCTCAATCCAAAAA | 22.2 % of maximum
AAAAAATCCATTCTTCGCGTTTATCCAAAA | 33.5 % of maximum
AAAAAATGTATTCGTGTCCACTCCATAAAA | 11.5 % of maximum
AAAAAAACGATACGGTATCTAGAAAA | 18.7 % of maximum
AAAAAACTCGACATAGAATGCGGAAAAAAA | 28.3 % of maximum
AAAAAAGTACATGCGTAGATAATGTTAAAA | 34.8 % of maximum
AAAAAATGCCATTGTACCTGTGTTCGAAAA | 10.6 % of maximum
AAAAAAGTCCCGCGCTAAGCTTTAAAAAAA | 55.4 % of maximum
AAAAAATAAACGTGTTCATACTTAGTAAAA | 11.7 % of maximum
AAAAAACCCCAGATTTCCAGCAGTTCAAAA | 41.3 % of maximum

Block 6 — technique: protein-binding microarray; molecule type: double-stranded DNA, one strand shown; matrix: in vitro; tested at: 940 nM top; setting: 60-bp whole probe; with: salmon DNA 0.4 mg/ml; relative to: random background probes; reading: higher = stronger binding; all sequences stand within: GCCTAGCAC … GTCTTGATTCGCTTGACGCTGCTG
Target: Interferon regulatory factor 5, full length, phosphomimetic (IRF5, Homo sapiens, UniProt Q13568-2, residues 1-514, S451D/S453D/S456D/S462D)
Sequence | fitted relative affinity [z-score]
GACGATTTCAGTATCAAGACGTGCTAG | 1.12
TTTGGTTTCGGGTATCGGTTAGTGCTA | 13.8
TCATACCTGTATATCTTACTGTGCTAG | 0.274
GACGATATCGAGTATCGAGACGTGCTA | 1.61
TTAGGTCTCCTTCTCCGTTAGTGCTAG | 0.749
TCATTTTTTGGAATGTCACTGTGCTAG | 0.381
ACTTCCCTCGGGTTGCGGAGCGTGCTA | -0.161
TCATTGTTCTCTCTGGCACTGTGCTAG | 0.533
CAACCTATAGGTTCAACGACGTGCTAG | -0.267
GACGGACTGAGTTTCGAGACGTGCTAG | 3.18
GACGAACCGGGGTATCGAGACGTGCTA | 0.951
GACGGTATCGGGTATCGGGTCGTGCTA | 6.04
TTATGTGTAGGTCTTAAATAGTGCTAG | -0.254
TTAAGACTGGGACTGGGTTAGTGCTAG | -0.567
GACGGTTTCGACTTTCTGGACGTGCTA | 7.34
GATAATTTTTTTCTAAGTAAGTGCTAG | 1.2
GACGATCTCAGTTGCGAGACGTGCTAG | 0.624
TTTGGTTTCCTACTGCTTTAGTGCTAG | 1.79
GACGCTATCCTACTGCTGACGTGCTAG | 0.0233
GATGATCTCAGTTTCGAGACGTGCTAG | 3.83
TTAGGACTGGGACCGGGTTAGTGCTAG | -0.808
GACGCACTGCTTTTCCTGACGTGCTAG | -0.0618
TCAACTTTGGTTTGTACACTGTGCTAG | -0.119
TCATAGATGCCTTTCTCACTGTGCTAG | 0.256
GACGGTATCGGGTTTCTGGACGTGCTA | 4.09
